{"data": "Experimental data gathered from unrelated publications", "note": "Numbered parts are unrelated; each lists some results of a single study. Several values in a cell are separate wells, animals, samples, runs or records.", "sequence of UniProt P14616 (whole entry, looked up)": "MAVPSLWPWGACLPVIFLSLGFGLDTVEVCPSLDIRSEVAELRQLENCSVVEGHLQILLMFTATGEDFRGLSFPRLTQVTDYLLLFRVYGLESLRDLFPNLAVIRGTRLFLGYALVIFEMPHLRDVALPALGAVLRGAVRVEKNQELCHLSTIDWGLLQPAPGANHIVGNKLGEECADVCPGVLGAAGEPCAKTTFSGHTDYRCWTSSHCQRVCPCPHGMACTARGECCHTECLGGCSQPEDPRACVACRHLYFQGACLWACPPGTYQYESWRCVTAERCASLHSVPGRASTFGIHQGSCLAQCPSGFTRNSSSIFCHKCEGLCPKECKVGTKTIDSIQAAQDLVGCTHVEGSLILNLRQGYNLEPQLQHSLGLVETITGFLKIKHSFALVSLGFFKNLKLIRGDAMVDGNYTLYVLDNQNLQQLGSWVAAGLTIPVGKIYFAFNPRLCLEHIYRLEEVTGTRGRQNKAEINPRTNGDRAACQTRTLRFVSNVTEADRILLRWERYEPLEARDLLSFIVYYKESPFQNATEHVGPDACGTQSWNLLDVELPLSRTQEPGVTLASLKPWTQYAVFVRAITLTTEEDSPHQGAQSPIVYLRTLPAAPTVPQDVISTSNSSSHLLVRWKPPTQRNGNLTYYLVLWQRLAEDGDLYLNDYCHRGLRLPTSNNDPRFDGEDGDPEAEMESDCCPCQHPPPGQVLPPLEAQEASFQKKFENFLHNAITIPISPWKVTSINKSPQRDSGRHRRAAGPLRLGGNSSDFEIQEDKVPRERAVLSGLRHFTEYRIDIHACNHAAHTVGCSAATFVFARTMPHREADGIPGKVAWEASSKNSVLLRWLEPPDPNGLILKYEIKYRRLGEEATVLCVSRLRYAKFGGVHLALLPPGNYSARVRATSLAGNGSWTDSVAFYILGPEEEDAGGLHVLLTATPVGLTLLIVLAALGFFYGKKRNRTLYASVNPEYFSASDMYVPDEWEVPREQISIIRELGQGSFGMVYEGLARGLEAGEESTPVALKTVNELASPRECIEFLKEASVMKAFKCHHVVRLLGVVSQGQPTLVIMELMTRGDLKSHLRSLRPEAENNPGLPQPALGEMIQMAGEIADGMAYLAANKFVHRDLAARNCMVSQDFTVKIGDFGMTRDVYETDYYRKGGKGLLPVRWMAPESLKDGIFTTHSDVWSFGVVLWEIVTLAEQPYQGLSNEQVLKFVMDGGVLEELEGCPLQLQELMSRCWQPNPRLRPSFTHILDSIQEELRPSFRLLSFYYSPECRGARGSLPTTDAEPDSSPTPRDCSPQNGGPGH", "sequence of UniProt P09619 (whole entry, looked up)": "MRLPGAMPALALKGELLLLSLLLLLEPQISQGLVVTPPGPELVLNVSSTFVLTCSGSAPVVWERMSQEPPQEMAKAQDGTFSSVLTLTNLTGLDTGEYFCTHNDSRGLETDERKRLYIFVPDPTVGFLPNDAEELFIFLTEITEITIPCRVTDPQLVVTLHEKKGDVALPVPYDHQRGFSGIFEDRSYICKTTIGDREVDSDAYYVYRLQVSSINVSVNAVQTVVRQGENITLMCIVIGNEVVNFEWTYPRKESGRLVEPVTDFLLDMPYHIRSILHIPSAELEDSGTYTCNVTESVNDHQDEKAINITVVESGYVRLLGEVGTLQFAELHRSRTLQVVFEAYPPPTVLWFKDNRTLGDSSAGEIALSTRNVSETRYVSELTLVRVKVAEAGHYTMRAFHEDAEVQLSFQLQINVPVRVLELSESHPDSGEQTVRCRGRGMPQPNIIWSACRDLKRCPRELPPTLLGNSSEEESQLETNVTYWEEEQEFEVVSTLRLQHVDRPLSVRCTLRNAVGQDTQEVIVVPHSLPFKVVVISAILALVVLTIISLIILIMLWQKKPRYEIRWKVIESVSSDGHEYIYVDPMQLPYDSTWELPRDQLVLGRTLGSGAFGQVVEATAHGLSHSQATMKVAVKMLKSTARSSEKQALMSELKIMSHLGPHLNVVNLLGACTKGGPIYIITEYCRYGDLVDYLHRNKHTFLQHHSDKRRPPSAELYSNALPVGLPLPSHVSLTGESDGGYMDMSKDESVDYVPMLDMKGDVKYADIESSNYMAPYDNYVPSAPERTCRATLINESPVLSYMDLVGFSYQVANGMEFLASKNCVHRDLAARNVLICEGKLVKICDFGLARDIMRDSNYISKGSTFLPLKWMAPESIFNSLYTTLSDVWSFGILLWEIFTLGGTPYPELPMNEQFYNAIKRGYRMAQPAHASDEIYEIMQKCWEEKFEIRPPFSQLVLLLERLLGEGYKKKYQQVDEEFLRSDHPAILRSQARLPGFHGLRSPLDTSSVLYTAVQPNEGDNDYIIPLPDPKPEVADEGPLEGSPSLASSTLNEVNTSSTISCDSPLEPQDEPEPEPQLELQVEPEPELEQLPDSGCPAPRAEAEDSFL", "sequence of UniProt P35968 (whole entry, looked up)": "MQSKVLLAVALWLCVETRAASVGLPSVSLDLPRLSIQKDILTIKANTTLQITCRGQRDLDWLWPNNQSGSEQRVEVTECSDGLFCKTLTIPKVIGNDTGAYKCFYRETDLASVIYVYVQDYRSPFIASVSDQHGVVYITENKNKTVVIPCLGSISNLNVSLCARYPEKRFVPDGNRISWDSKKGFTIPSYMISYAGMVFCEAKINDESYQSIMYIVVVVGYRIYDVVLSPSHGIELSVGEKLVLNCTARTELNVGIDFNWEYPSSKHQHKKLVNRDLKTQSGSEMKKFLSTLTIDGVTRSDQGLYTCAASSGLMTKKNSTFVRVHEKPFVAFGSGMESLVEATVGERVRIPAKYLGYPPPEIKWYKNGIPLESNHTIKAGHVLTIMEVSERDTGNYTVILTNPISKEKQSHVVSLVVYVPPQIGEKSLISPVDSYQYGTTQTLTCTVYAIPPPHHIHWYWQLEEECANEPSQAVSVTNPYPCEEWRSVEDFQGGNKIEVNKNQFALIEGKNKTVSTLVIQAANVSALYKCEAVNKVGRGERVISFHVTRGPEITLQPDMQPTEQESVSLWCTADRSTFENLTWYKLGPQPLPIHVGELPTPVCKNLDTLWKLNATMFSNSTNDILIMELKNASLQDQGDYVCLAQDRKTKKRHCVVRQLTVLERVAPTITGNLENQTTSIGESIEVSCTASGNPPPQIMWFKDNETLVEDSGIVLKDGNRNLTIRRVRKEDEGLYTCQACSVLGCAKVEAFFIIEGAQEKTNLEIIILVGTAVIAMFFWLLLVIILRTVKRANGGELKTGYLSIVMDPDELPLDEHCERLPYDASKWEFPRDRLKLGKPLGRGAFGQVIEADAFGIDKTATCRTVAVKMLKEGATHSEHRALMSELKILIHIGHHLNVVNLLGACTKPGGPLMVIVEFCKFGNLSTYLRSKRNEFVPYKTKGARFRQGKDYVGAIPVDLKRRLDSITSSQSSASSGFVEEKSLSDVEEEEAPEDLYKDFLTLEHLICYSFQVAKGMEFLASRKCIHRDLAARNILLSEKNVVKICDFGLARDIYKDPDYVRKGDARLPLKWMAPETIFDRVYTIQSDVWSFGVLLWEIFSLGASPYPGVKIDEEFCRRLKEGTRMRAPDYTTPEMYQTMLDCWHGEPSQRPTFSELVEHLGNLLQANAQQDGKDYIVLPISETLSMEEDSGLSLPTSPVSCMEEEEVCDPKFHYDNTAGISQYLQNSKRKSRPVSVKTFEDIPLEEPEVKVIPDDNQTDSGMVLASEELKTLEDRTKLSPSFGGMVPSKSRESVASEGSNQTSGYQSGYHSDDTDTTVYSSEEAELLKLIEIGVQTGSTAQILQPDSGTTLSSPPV", "sequence of UniProt P27037 (whole entry, looked up)": "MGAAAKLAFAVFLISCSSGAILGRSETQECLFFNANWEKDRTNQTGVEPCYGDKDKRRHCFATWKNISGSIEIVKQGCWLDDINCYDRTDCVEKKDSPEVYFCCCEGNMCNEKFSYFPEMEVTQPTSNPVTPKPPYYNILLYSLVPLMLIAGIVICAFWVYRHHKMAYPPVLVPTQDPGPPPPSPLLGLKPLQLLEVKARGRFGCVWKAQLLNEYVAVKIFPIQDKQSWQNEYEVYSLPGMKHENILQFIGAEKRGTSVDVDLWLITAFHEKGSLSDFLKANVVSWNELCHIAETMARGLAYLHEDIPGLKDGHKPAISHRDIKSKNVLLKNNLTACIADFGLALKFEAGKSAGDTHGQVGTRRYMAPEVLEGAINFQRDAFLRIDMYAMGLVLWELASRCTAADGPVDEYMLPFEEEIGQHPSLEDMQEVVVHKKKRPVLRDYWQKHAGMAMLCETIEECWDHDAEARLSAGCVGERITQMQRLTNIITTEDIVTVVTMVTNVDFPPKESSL"}
{"data": "Series 1", "SMILES": "CC(=O)N[C@@H](Cc1c[nH]c2ccccc12)C(=O)N[C@@H](CCC(=O)C=[N+]=[N-])C(=O)OC(C)C", "technique": "UPLC-MS/MS metabolomics", "host": "C57BL/6 CES1-/- mice, EL4 tumour", "sample": "EL4 tumour", "route": "subcutaneous", "dose": "0.3 mg/kg/day DON equivalent", "time": "5 days", "notes": "normalised to tissue mass"}
{"measured": "UDP-galactose", "peak intensity": "1.33e+06 a.u. and 4.44e+06 a.u. and 4.93e+06 a.u. and 3.3e+06 a.u. and 1.41e+06 a.u. and 918000 a.u."}
{"measured": "UMP", "peak intensity": "8.81e+06 a.u. and 3.1e+06 a.u. and 9.49e+06 a.u. and 1.08e+07 a.u. and 3.04e+07 a.u. and 2.81e+07 a.u."}
{"measured": "N6,N6-dimethyllysine", "peak intensity": "8.38e+07 a.u. and 1.16e+08 a.u. and 8.74e+07 a.u. and 1.1e+08 a.u. and 9.5e+07 a.u. and 8.3e+07 a.u."}
{"measured": "N6-carboxymethyllysine", "peak intensity": "2.96e+06 a.u. and 1.73e+06 a.u. and 2.34e+06 a.u. and 2.46e+06 a.u. and 2.37e+06 a.u. and 1.71e+06 a.u."}
{"measured": "N6,N6,N6-trimethyllysine", "peak intensity": "2.4e+08 a.u. and 2.15e+08 a.u. and 2.03e+08 a.u. and 1.69e+08 a.u. and 1.85e+08 a.u. and 1.66e+08 a.u."}
{"measured": "S-adenosylhomocysteine", "peak intensity": "55500 a.u. and 36800 a.u. and 34500 a.u. and 57800 a.u. and 61700 a.u. and 47300 a.u."}
{"measured": "S-1-pyrroline-5-carboxylate", "peak intensity": "1.3e+06 a.u. and 2.49e+06 a.u. and 2.05e+06 a.u. and 1.86e+06 a.u. and 2.33e+06 a.u. and 1.74e+06 a.u."}
{"measured": "O-methyltyrosine", "peak intensity": "495000 a.u. and 939000 a.u. and 501000 a.u. and 877000 a.u. and 747000 a.u. and 958000 a.u."}
{"measured": "N6-acetyllysine", "peak intensity": "7.84e+06 a.u. and 4.56e+06 a.u. and 4.68e+06 a.u. and 6.64e+06 a.u. and 3.59e+06 a.u. and 5.17e+06 a.u."}
{"measured": "cis/trans-aconitate", "peak intensity": "2.59e+06 a.u. and 1.26e+06 a.u. and 2.68e+06 a.u. and 1.06e+06 a.u. and 2.27e+06 a.u. and 1.19e+06 a.u."}
{"measured": "TMP", "peak intensity": "66400 a.u. and 57100 a.u. and 77100 a.u. and 65600 a.u. and 64500 a.u. and 38600 a.u."}
{"data": "Series 2", "SMILES": "CSc1cccnc1N1CCN(Cc2nc3ccccc3[nH]2)CC1", "concentration": "1 µM"}
{"target": "CAMK1 (Homo sapiens, UniProt Q14012)", "observed": "cell-free assay", "technique": "competition with immobilised ligand", "remaining binding [%]": 100}
{"target": "KDR (Homo sapiens, UniProt P35968)", "observed": "cell-free assay", "technique": "competition with immobilised ligand", "remaining binding [%]": 89}
{"target": "HIPK3 (Homo sapiens, UniProt Q9H422)", "observed": "cell-free assay", "technique": "competition with immobilised ligand", "remaining binding [%]": 96}
{"target": "RIPK4 (Homo sapiens, UniProt P57078)", "observed": "cell-free assay", "technique": "competition with immobilised ligand", "remaining binding [%]": 66}
{"target": "PDGFRB (Homo sapiens, UniProt P09619)", "observed": "cell-free assay", "technique": "competition with immobilised ligand", "remaining binding [%]": 100}
{"target": "MAPKAPK2 (Homo sapiens, UniProt P49137)", "observed": "cell-free assay", "technique": "competition with immobilised ligand", "remaining binding [%]": 80}
{"target": "IKBKE (Homo sapiens, UniProt Q14164)", "observed": "cell-free assay", "technique": "competition with immobilised ligand", "remaining binding [%]": 81}
{"target": "INSRR (Homo sapiens, UniProt P14616)", "observed": "cell-free assay", "technique": "competition with immobilised ligand", "remaining binding [%]": 94}
{"target": "ACVR2A (Homo sapiens, UniProt P27037)", "observed": "cell-free assay", "technique": "competition with immobilised ligand", "remaining binding [%]": 69}
{"target": "PRKX (Homo sapiens, UniProt P51817)", "observed": "cell-free assay", "technique": "competition with immobilised ligand", "remaining binding [%]": 100}
{"target": "FLT3 (Homo sapiens, UniProt P36888, D835Y)", "observed": "cell-free assay", "technique": "competition with immobilised ligand", "remaining binding [%]": 100}
{"target": "CAMKK2 (Homo sapiens, UniProt Q96RR4)", "observed": "cell-free assay", "technique": "competition with immobilised ligand", "remaining binding [%]": 100}
{"target": "NEK4 (Homo sapiens, UniProt P51957)", "observed": "cell-free assay", "technique": "competition with immobilised ligand", "remaining binding [%]": 88}
{"target": "Tyrosine-protein kinase ABL1, phosphorylated (ABL1, Homo sapiens, UniProt P00519)", "observed": "cell-free assay", "technique": "competition with immobilised ligand", "remaining binding [%]": 78}
{"target": "CDKL2 (Homo sapiens, UniProt Q92772)", "observed": "binding", "technique": "competition with immobilised ligand", "remaining binding [%]": 84}
{"target": "WEE2 (Homo sapiens, UniProt P0C1S8)", "observed": "cell-free assay", "technique": "competition with immobilised ligand", "remaining binding [%]": 100}
{"target": "SIK1 (Homo sapiens, UniProt P57059)", "technique": "competition binding", "remaining binding [%]": 100}
{"data": "Series 3", "target": "Maternal embryonic leucine zipper kinase (MELK, Homo sapiens, UniProt Q14680)", "observed": "enzyme activity", "mode": "inhibitor", "concentration": "0.5 µM", "relative to": "control", "sequence of UniProt Q14680 (whole entry, looked up)": "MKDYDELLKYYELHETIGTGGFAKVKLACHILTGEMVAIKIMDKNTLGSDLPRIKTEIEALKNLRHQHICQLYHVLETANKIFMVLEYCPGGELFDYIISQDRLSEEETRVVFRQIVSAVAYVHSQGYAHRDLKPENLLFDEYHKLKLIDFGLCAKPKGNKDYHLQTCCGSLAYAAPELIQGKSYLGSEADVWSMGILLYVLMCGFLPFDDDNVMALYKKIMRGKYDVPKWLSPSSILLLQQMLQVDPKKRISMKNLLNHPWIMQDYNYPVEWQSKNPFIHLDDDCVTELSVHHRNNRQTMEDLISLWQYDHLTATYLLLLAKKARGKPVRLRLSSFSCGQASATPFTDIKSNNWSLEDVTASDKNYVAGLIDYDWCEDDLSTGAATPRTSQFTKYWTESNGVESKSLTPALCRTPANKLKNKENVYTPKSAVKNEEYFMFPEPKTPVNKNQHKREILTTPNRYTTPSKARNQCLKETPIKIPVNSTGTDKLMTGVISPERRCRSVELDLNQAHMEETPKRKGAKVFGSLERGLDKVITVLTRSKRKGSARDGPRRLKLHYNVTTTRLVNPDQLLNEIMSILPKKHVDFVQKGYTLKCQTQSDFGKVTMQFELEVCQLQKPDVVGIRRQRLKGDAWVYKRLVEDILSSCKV"}
{"SMILES": "O=Nc1c(-c2c(O)[nH]c3cc(Br)ccc23)[nH]c2ccccc12", "remaining activity": "43.5%"}
{"SMILES": "c1ccc2c(-c3ccncc3)c[nH]c2c1", "remaining activity": "102%"}
{"SMILES": "O=C1NC(=O)c2c1c1c3ccccc3[nH]c1n1cncc21", "remaining activity": "32.6%"}
{"SMILES": "Oc1cccc(-c2nc(N3CCOCC3)c3oc4ncccc4c3n2)c1", "remaining activity": "75.5%"}
{"SMILES": "N#Cc1cnc2cnc(NCc3cccnc3)cc2c1Nc1ccc(F)c(Cl)c1", "remaining activity": "88%"}
{"SMILES": "O=C1Cc2c([nH]c3ccc(Br)cc23)-c2ccccc2N1", "remaining activity": "74.8%"}
{"SMILES": "O=C1Nc2ccccc2/C1=C\\c1c(Cl)[nH]c2ccccc12", "remaining activity": "85.7%"}
{"SMILES": "COc1ccc2c(c1)c(C1=C(c3c[nH]c4ccccc34)C(=O)NC1=O)cn2CCCN(C)C", "remaining activity": "70.7%"}
{"data": "Single results of other studies"}
{"Structure (SMILES)": "CCc1c(C)c2cc3nc(cc4nc(cc5c(CC)c(C)c(cc1[nH]2)n5C)C(C)=C4CCC(=O)O)C(CCC(=O)O)=C3C", "target": "G-quadruplex RNA, G-quadruplex (Homo sapiens)", "technique": "fluorescence turn-on", "notes": "KCl 150 mM", "endpoint": "binding", "result": "binds"}
{"note": "Some of these lines once more (series 2):"}
{"target": "FLT3 (Homo sapiens, UniProt P36888, D835Y)", "observed": "cell-free assay", "technique": "competition with immobilised ligand", "remaining binding [%]": 100}
{"target": "RIPK4 (Homo sapiens, UniProt P57078)", "observed": "cell-free assay", "technique": "competition with immobilised ligand", "remaining binding [%]": 66}
{"target": "CDKL2 (Homo sapiens, UniProt Q92772)", "observed": "binding", "technique": "competition with immobilised ligand", "remaining binding [%]": 84}
{"target": "Tyrosine-protein kinase ABL1, phosphorylated (ABL1, Homo sapiens, UniProt P00519)", "observed": "cell-free assay", "technique": "competition with immobilised ligand", "remaining binding [%]": 78}
{"target": "SIK1 (Homo sapiens, UniProt P57059)", "technique": "competition binding", "remaining binding [%]": 100}
{"target": "PDGFRB (Homo sapiens, UniProt P09619)", "observed": "cell-free assay", "technique": "competition with immobilised ligand", "remaining binding [%]": 100}
